{"data": "Experimental data from different studies", "note": "Every numbered part comes from another study and shows a few of its results, in no order."}
{"data": "Series 1", "target": "RNA binding protein fox-1 homolog 2, RRM domain, GST-SBP tag (RBFOX2, Homo sapiens, UniProt O43251-10, residues 100-194)", "technique": "RNA Bind-n-Seq", "form": "RNA", "medium": "in vitro", "tested at": "365 nM", "setting": "natural RNA segment, single round, ends assumed", "baseline": "no-protein control", "reading": "higher = stronger binding", "constant ends, left off below": "GGGAGUUCUACAGUCCGACGAUC … UGGAAUUCUCGGGUGCCAA", "Residues (chain)": "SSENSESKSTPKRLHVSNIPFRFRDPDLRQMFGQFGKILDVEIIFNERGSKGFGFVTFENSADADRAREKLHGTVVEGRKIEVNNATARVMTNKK"}
{"Oligonucleotide": "UCCAAAGAGGAAUGAGGCCCAGGCCUUGGCUAUACGUACUUCCUGCCCCUGGCCAUCCUUGUUGGAGGCUUCUGGGUGGAACACUGGGUCUAGAACCUUCUUCCGUGGCU", "RBNS enrichment (R)": 0.382}
{"Oligonucleotide": "GCACUGGGCAACCUCAUCUUGCCUGCUCUCCCGCACCUGCUGGGACAUGAGCAUCUUGGGAUAUCUCUUUAACACUCAAGUAGCAAUUAAAGUUGAUUGUUCAGCUGGAG", "RBNS enrichment (R)": 0.343}
{"Oligonucleotide": "AAUAUAUAUUUUAAUAUCUGUAAAAAGUGACAGUGGAAGACUUUGAAUUUCUCAUAUAUGGUAUGUUUGAUGUAGGACCUCACUGUUAAGGCACAAAUUAUUUCAAAGGA", "RBNS enrichment (R)": 0.526}
{"Oligonucleotide": "CAGACUCUGUUCCACUAGUGAAUGAACCAUUUUCUAAACGUUUCCCUUUGACUUUUUUAUUUAUUGAAUUUUCUUGGUUUGGAGAUGGCAGUCCCAAACACCAGAGUCUG", "RBNS enrichment (R)": 0.838}
{"Oligonucleotide": "UGCCCAGAGAAAGCACUGCUUCUGUAUGUCUCUUGUGGUAUUGGAACAAUAAACCCGUACAACCUGCAGUUGUGGUCUCAGUCAUCUGUGGCUGCCUCGCUGGUGUGGGA", "RBNS enrichment (R)": 0.363}
{"Oligonucleotide": "UUAUAUAGAUAAUUCUUGACUGUAAAACAUUUUGACCAGUGUUUUACAACAUGUACAUAAGAAUACACAUAAUUCAACUAGAGAUUUGAAGAAUUGGCUUGUAUAGUUAU", "RBNS enrichment (R)": 0.46}
{"Oligonucleotide": "CACCAACACAGGUUGCAGAGUGCUCAGUCCUGCUCUGCCUAGCUGGCCCCACCCCAGCUCUCUUUCUCUGGGGUACUUAGGGAGAGGAUCCUUCCUCUCCGAGGAUCCUC", "RBNS enrichment (R)": 0.43}
{"Oligonucleotide": "UUUAUUCUGGGAAGAUGUUUUUCAAACUCAGAGACAAGGACUUUGGUUUUUGUAAGACAAACGAUGAUAUGAAGGCCUUUUGUAAGAAAAAAUAAAAGAUGAAGUGUGUU", "RBNS enrichment (R)": 0.627}
{"Oligonucleotide": "AGUGAACUGAUGCUCCCACCUGGGUGCCUCCAUGGCUUCCUUGAGCAACUGUCCCUAAGAUGCUUUCAAGUGUAUGAGACAUGAGGAGGCUGGGCCACUCUGGUUAUGCA", "RBNS enrichment (R)": 3.45}
{"Oligonucleotide": "ACCCCCCAGGGAGCUGCCUCCCAGGCAGGGGGUGCAGAAAAUGAUUGAUGGGCUGGGGAACCCUGGAGAGCCUCGACUCCGGAAGUCUCAAGGUGCCUCCUCCUCUCCUU", "RBNS enrichment (R)": 0.297}
{"Oligonucleotide": "UCCAGUGUCAAACACCGCCCAGGCUUUCCAGCUGACCUCUGUUAUCUUGAGAGCUGAGGCUAGGUCCUCCCAGCUACUGUUAGGCAUUGAGGUACUAAAACUGCAGGUGG", "RBNS enrichment (R)": 0.313}
{"Oligonucleotide": "GGCUACAAGCCCAGCGAUGAGCACAAGACCGACCUCAACCCCGACAACCUGCAGGGCGGCGACGACCUGGACCCCAACUACGUGCUGAGCUCGCGGGUGCGCACGGGCCG", "RBNS enrichment (R)": 0.402}
{"data": "Series 2", "target": "Fragile X messenger ribonucleoprotein 1, C-terminal low-complexity region (Fmr1, Mus musculus, UniProt P35922)", "technique": "RNA Bind-n-Seq", "form": "RNA", "medium": "in vitro", "tested at": "200 nM", "setting": "whole 134-nt RNA, ends assumed", "added": "150 mM KCl", "baseline": "input library", "reading": "higher = stronger binding", "constant ends, left off below": "GGGAGUUCUACAGUCCGACGAUC … UGGAAUUCUCGGGUGUCAAGG"}
{"Oligonucleotide": "UCCUCAAGUCCUGUGCUACACAUCGUAUGUACCGAAUCGGGCGGGCGGGCGGAAAGUAUUAUGUUACGCCGUUCGGAUCUGCACUUCCAG", "log2 enrichment": 1.57}
{"Oligonucleotide": "ACCAUGCAGGUGGGCAUCUUUGGGAAGUGGGGCAAGGGGGGGAUAGGGAGAGGGGUAACACUUUGGGAACAGGUGGUCCCAGGUCGUUUC", "log2 enrichment": 0.641}
{"Oligonucleotide": "AAGUCCUGUGCUACACAUCGUAUGUACCGAAUCGGGAAAAAGGGUGGGUUUUUGGGAAAGUAUUAUGUUACGCCGUUCGGAUCUGCACUU", "log2 enrichment": 0.838}
{"Oligonucleotide": "GUCCUGUGCUACACAUCGUAUGUACCGAAUCGGAAAAAAGGGAAAAAAGGAAAAAAGGGAAAGUAUUAUGUUACGCCGUUCGGAUCUGCA", "log2 enrichment": -0.851}
{"Oligonucleotide": "UGGUGGACCCGCAGCAGCUGGGCAUGUUCACGGAGGGCGAGCUGAUGUCGGUGGGUAUGGACACGUUCAUCCACCGCAUCGACUCCACCG", "log2 enrichment": -0.884}
{"Oligonucleotide": "ACCAUGCAGGUGGGCAUCUUUGGGAAGUGGGGCAAGGGGGGGAUAGGGAGGGGAAAAACACUUUGGGAACAGGUGGUCCCAGGUCGUUUC", "log2 enrichment": 0.834}
{"Oligonucleotide": "CUGUGCUACACAUCGUAUGUACCGAAUCGGGAAAAAAAGGGAAAAAAAGGAAAAAAAGGGGAAAGUAUUAUGUUACGCCGUUCGGAUCUG", "log2 enrichment": -0.964}
{"Oligonucleotide": "UCCUGUGCUACACAUCGUAUGUACCGAAUCAAACCCCCCCAAAUUUUUAAACCCCCAAAAAAGUAUUAUGUUACGCCGUUCGGAUCUGCA", "log2 enrichment": -0.108}
{"Oligonucleotide": "UCAAGUCCUGUGCUACACAUCGUAUGUACCGAAUCGGGGAGGGGAGGGGAGGGGAAAGUAUUAUGUUACGCCGUUCGGAUCUGCACUUCC", "log2 enrichment": 1.18}
{"Oligonucleotide": "UCCUGUGCUACACAUCGUAUGUACCGAAUCAAAUUUAAAUUUUUUUAAACCCCCCCAAAAAAGUAUUAUGUUACGCCGUUCGGAUCUGCA", "log2 enrichment": 0.322}
{"Oligonucleotide": "CCUGUGCUACACAUCGUAUGUACCGAAUCGGGGUUUUUUGGUUUUUUGGGGUUUUUUGGGGAAAGUAUUAUGUUACGCCGUUCGGAUCUG", "log2 enrichment": -0.686}
{"Oligonucleotide": "ACCAUGCAGGUGGGCAUCUUUGGGAAGUGGGGCAAGGGGGGGAUAGGGAGGGGGGUAACACUUUGGGAACUGGUGGUCCCAGGUCGUUUC", "log2 enrichment": 0.587}
{"Oligonucleotide": "UAACUUUAGAGGAGGAUCUGAUGGAUAUGGCAGUGGACGUGGAUUUGGGGAUGGCUAUAAUGGGUAUGGAGGUGGACCUGGAGGUGGCAA", "log2 enrichment": 0.337}
{"Oligonucleotide": "UAAGGAUUCUAUCUGCUUACUGCUACAGACCUAUGUGUUAAGGAAUUCUUCUCCUCCUCCUUGCGUAGAAGUUGAUCAGCACUGUGGUCA", "log2 enrichment": 0.188}
{"data": "Series 3", "target": "Interferon regulatory factor 5, full length, phosphomimetic (IRF5, Homo sapiens, UniProt Q13568-2, residues 1-514, S451D/S453D/S456D/S462D)", "technique": "protein-binding microarray", "form": "double-stranded DNA, one strand shown", "medium": "in vitro", "tested at": "940 nM top", "setting": "60-bp whole probe", "added": "salmon DNA 0.4 mg/ml", "baseline": "random background probes", "reading": "higher = stronger binding", "constant ends, left off below": "GCCTAGCAC … GTCTTGATTCGCTTGACGCTGCTG"}
{"Oligonucleotide": "TCATGAGTCCCTATCTCACTGTGCTAG", "fitted relative affinity": "-0.174 z-score"}
{"Oligonucleotide": "GACGGACTAGGTCTCGGGACGTGCTAG", "fitted relative affinity": "-0.364 z-score"}
{"Oligonucleotide": "TAAGGTATCGGTTTCGGTTAGTGCTAG", "fitted relative affinity": "11.3 z-score"}
{"Oligonucleotide": "TCATGTATTTGTCCCTAACTGTGCTAG", "fitted relative affinity": "1.11 z-score"}
{"Oligonucleotide": "TTAGGTTTCCTACTGCTTTGGTGCTAG", "fitted relative affinity": "0.651 z-score"}
{"Oligonucleotide": "TCAGTTTTCACTTTTCCACTGTGCTAG", "fitted relative affinity": "2.71 z-score"}
{"Oligonucleotide": "TTAGGTTTCGGGACTGGGTGAGTGCTA", "fitted relative affinity": "7.89 z-score"}
{"Oligonucleotide": "TCATGTTTCCATTTTCTACTGTGCTAG", "fitted relative affinity": "1.26 z-score"}
{"Oligonucleotide": "AGTGTTTCCCCTATTTAAGAGTGCTAG", "fitted relative affinity": "1.49 z-score"}
{"Oligonucleotide": "TGGTCTCTAGTTAGAGAACTGTGCTAG", "fitted relative affinity": "1.18 z-score"}
{"Oligonucleotide": "CTAGATTTCAGTCTCGATTAGTGCTAG", "fitted relative affinity": "4.05 z-score"}
{"Oligonucleotide": "GACGGACTGGGACCGGGGACGTGCTAG", "fitted relative affinity": "-0.5 z-score"}
{"Oligonucleotide": "GACGAACTGGGGTAGCGAGACGTGCTA", "fitted relative affinity": "-0.0161 z-score"}
{"Oligonucleotide": "GACGGTTTCCTTCTCCTGATGTGCTAG", "fitted relative affinity": "1.58 z-score"}
{"Oligonucleotide": "TCAATTTTCTAAATTCCACTGTGCTAG", "fitted relative affinity": "0.26 z-score"}
{"Oligonucleotide": "TTAGGTCTCGGTCTCCGTTAGTGCTAG", "fitted relative affinity": "4.45 z-score"}
{"Oligonucleotide": "TTAGGTATCGGACCGGGTTAGTGCTAG", "fitted relative affinity": "3.4 z-score"}
{"Oligonucleotide": "TCACATCGTAAGCAAAAACTGTGCTAG", "fitted relative affinity": "-0.0786 z-score"}
{"Oligonucleotide": "AACGGTTTCGACTTTCGGGACGTGCTA", "fitted relative affinity": "7.47 z-score"}
{"Oligonucleotide": "TTAAGACTGGGTCTCGGTTAGTGCTAG", "fitted relative affinity": "1.2 z-score"}
{"Oligonucleotide": "GACGATATCACTATCGAGACGTGCTAG", "fitted relative affinity": "0.338 z-score"}
{"Oligonucleotide": "GTGATGTGAGGGGAGAGGGAGTGCTAG", "fitted relative affinity": "0.0281 z-score"}
{"Oligonucleotide": "TCAGATTTCGGGACTGGATTAGTGCTA", "fitted relative affinity": "0.333 z-score"}
{"Oligonucleotide": "GACGGTATTGACTATCGGGACGTGCTA", "fitted relative affinity": "0.133 z-score"}
{"Oligonucleotide": "TTAGGTATGGGGACTGGGTTAGTGCTA", "fitted relative affinity": "0.179 z-score"}
{"data": "Mixed results", "target": "RING finger protein unkempt homolog, zinc fingers 1-6, SBP tag (UNK, Homo sapiens, UniProt Q9C0B0, residues 30-357)", "technique": "RNA Bind-n-Seq", "form": "RNA", "medium": "in vitro", "tested at": "100 nM", "setting": "RNA with constant flanks, ends assumed", "baseline": "input RNA pool", "reading": "higher = stronger binding", "sequence of UniProt Q9C0B0 (30-357, looked up)": "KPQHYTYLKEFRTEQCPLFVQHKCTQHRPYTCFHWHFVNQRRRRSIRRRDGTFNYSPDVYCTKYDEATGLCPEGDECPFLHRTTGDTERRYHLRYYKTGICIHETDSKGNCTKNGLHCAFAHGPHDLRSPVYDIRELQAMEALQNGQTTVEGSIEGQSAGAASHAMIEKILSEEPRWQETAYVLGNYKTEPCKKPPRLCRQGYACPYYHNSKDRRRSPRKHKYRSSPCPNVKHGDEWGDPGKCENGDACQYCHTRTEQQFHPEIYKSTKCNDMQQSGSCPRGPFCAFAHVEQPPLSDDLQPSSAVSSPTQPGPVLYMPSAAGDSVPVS"}
{"Oligonucleotide": "GGGAGUUCUACAGUCCGACGAUCAUUGGAUGCAGUGUAACACUAUCCAAGGCAGUGACUUCAGCUUUAUAUACAUAUAAAAUACCGUCCGUUUUAAAAUUAUUGACAUUUAUUUAAACUUUCCGAUUGGAUUGUUUGCUAUUGCAACAGAGGAUUGAGCAUCA", "bound/input enrichment [ratio]": 0.58}
{"Oligonucleotide": "GGGAGUUCUACAGUCCGACGAUCCUGAAGCUUUGUGUUUGGCUGCACCUGCAUAAGCUGCUACAAACCGAAUAAAGAAUUUCACCGCCUGUAUCUAUCAUUCCGAUGCAUGGAAAAAAAUGGGCUUUGCACACAAUGGGUUUGCAACAGAGGAUUGAGCAUCA", "bound/input enrichment [ratio]": 0.246}
{"note": "Excerpt of the above (series 1):"}
{"Oligonucleotide": "AAUAUAUAUUUUAAUAUCUGUAAAAAGUGACAGUGGAAGACUUUGAAUUUCUCAUAUAUGGUAUGUUUGAUGUAGGACCUCACUGUUAAGGCACAAAUUAUUUCAAAGGA", "RBNS enrichment (R)": 0.526}
{"Oligonucleotide": "CAGACUCUGUUCCACUAGUGAAUGAACCAUUUUCUAAACGUUUCCCUUUGACUUUUUUAUUUAUUGAAUUUUCUUGGUUUGGAGAUGGCAGUCCCAAACACCAGAGUCUG", "RBNS enrichment (R)": 0.838}
{"Oligonucleotide": "UGCCCAGAGAAAGCACUGCUUCUGUAUGUCUCUUGUGGUAUUGGAACAAUAAACCCGUACAACCUGCAGUUGUGGUCUCAGUCAUCUGUGGCUGCCUCGCUGGUGUGGGA", "RBNS enrichment (R)": 0.363}
{"Oligonucleotide": "UUAUAUAGAUAAUUCUUGACUGUAAAACAUUUUGACCAGUGUUUUACAACAUGUACAUAAGAAUACACAUAAUUCAACUAGAGAUUUGAAGAAUUGGCUUGUAUAGUUAU", "RBNS enrichment (R)": 0.46}
{"Oligonucleotide": "CACCAACACAGGUUGCAGAGUGCUCAGUCCUGCUCUGCCUAGCUGGCCCCACCCCAGCUCUCUUUCUCUGGGGUACUUAGGGAGAGGAUCCUUCCUCUCCGAGGAUCCUC", "RBNS enrichment (R)": 0.43}
{"Oligonucleotide": "UUUAUUCUGGGAAGAUGUUUUUCAAACUCAGAGACAAGGACUUUGGUUUUUGUAAGACAAACGAUGAUAUGAAGGCCUUUUGUAAGAAAAAAUAAAAGAUGAAGUGUGUU", "RBNS enrichment (R)": 0.627}
